Measured values from different studies.
Parts stem from different laboratories: compare values within a part only.

Series 1 — technique: RNA Bind-n-Seq; form: RNA; matrix: in vitro; concentration: 200 nM; notes: whole 134-nt RNA, ends assumed; together with: 150 mM LiCl; reference: input library; reading: higher = stronger binding; each molecule: 7-deaza-guanosine replaces G
Target: Fragile X messenger ribonucleoprotein 1, C-terminal low-complexity region (Fmr1, Mus musculus, UniProt P35922)
Constant ends, left off below: GGGAGUUCUACAGUCCGACGAUC … UGGAAUUCUCGGGUGUCAAGG
Sequence	log2 enrichment
CCUGUGCUACACAUCGUAUGUACCGAAUCGGCCCCCCCGGGCCCCCCCGGGCCCCCCCGGGAAAGUAUUAUGUUACGCCGUUCGGAUCUG	-0.142
GUCCUGUGCUACACAUCGUAUGUACCGAAUCGGGGUUUUUGGGGUUUUUGGGUUUUUGGAAAGUAUUAUGUUACGCCGUUCGGAUCUGCA	-0.87
UGGCAGGAAAGAGUUCCUAGAGAGAGAAGACAAAGACAGUCUGUGUUGCAAAAGAAGCCCAAGGCUGAAGAUUUAAGAACUGAAUGUGCA	-1.92
AAAAGACAACACGCACCCACACAGACACAGAGGGAAGGGGUUGGGAUGGGGACAGGGUGCACAGCAGGGCGGGGUAGGACCCCAGCCCCU	-0.0287
AGUCCUGUGCUACACAUCGUAUGUACCGAAUCAAAUUUUUUUAAAUUUAAACCCAAAAAAGUAUUAUGUUACGCCGUUCGGAUCUGCACU	-1.09
CACAGACAACACGCACCCACACAGACACAGAGGGAAGGGGGUGGGAUGGGGACAGGGUGCACAGCAGGGCGGGGUAGGACCCCAGCCCCU	-0.95
UCCUGUGCUACACAUCGUAUGUACCGAAUCGGGCCCCCCGGGGCCCCCCGGCCCCCCGGAAAGUAUUAUGUUACGCCGUUCGGAUCUGCA	-0.438
UUGCAUUUCGAACGCGUUCUAAGAUGCCCCUGAAAGAUGUUCCCCUGGGCCAAUUAGAGGCAGAGCUCCAAGCUCCAGACAUCACUCCAG	1.05

Series 2 — technique: RNA Bind-n-Seq; form: RNA; matrix: in vitro; concentration: 365 nM; reference: no-protein control; reading: higher = stronger binding
Target: RNA binding protein fox-1 homolog 2, RRM domain, GST-SBP tag (RBFOX2, Homo sapiens, UniProt O43251-10, residues 100-194)
Notes: natural RNA segment, single round, ends assumed
Constant ends, left off below: GGGAGUUCUACAGUCCGACGAUC … UGGAAUUCUCGGGUGCCAA
Construct (chain): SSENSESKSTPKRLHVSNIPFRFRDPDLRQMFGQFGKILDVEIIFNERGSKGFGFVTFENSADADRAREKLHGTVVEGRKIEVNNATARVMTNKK
Sequence	RBNS enrichment (R)
UUCCAAACCAGAUUUCCUGUGAUUCUAUACUAAUAAUUUUUGAUAUAACCCUUUGCUUCUUAUAAUGAGUGCGAUAUAUGUUGUCGAGGCUGUUCUUCAAGAAUUAAAAU	0.534
AGCCUUUGCCAGUCUAGCCCCAGCAGGGCACCGUGUAUGAAUGCAGUUUGGUGCUGUUUUAGAGUAUGCCUGCUCCCCAGCCCCCUGCCUGGAACCCUCUGAGCAACUUG	2
CAUGUCACGAUGUCAGAUUCAACAGGAGAACUCUGUGCCCUUCCUAUAGACACCAAAUGUCUGGCACAAUCUCUACUGAGCAGCACCCACUUAAGACAGCAGAGCACCUU	0.824
AGUUUGAUAACUAGGGAAGAAAGCAGAACAGUUAAGCAGCCGCCACAUCCCCGCUGGCUGGGGGCCUCACUCCAGGAAGGGGCUGGACUGGCUGUCCUUUCCAGUGGCCU	0.215
UUGCUGUAUUUACUGAAAUCUCUGGCACAGAAGGAAGUGUGUUUGCCUCACACACCAUUUGUCCCAGACCAGUGGCAUUAGGCCAUAUAUUCUCUUCUAGUGUUUGCUUA	0.431
AUGGUAGGCUGUAUAGUUUUUAGUCUGUGUAGUUAAUUUAAUUUGCAGUUUGUGCGGCAGAUUGCUCUGCCAAGAUACUUGAACACUGUGUUUUAUUGUGGUAAUUAUGU	0.608
CUUGGUCUCUACGAUCUCCGUGCAAAAACCAUUAUCAAGUUCUCAGAUGAAUAUCUGACAAAGCAGUGGAGGUAUCCGAUUGAGCUUCAUGGCAUUGGUAAAUAUGGCAA	0.311
CUCUGUACACAGCCCCGUGAACCCUGAGGAGUGGAGUCAUACACGAAGGGCGUGUGGCCAUCGUGUCAGCAGAGAGAGUCUCUGUACACAGCCCCGUGAACCCUGAGGAG	0.354

Series 3 — action: inhibitor; concentration: 20 µM
Target: Replicase polyprotein 1ab, nsp13 helicase (rep, Severe acute respiratory syndrome coronavirus 2, UniProt P0DTD1)
Structure (SMILES)	inhibition
CCN1CCCC1CNC(=O)c1cc(S(=O)(=O)CC)c(N)cc1OC (stereo not shown)	-1.61%
CCN(CC)CCNC(=O)COc1ccc(OC)cc1	-0.91%
NC1CCN(c2nc3c(cc2F)c(=O)c(C(=O)O)cn3-c2ccc(F)cc2F)C1 (stereo not shown)	7.91%
c1ccc2c(c1)[I+]c1ccccc1-2	2.64%
C1N2CN3CN1CN(C2)C3	-4.41%
C[C@]12CC[C@H]3[C@@H](CC[C@@]45O[C@@H]4C(O)=C(C#N)C[C@]35C)[C@@H]1CC[C@@H]2O	0.75%
CC(=O)O[C@@]12CO[C@@H]1C[C@@H](O)[C@@]1(C)C(=O)[C@H](O)C3=C(C)[C@@H](O)C[C@@](O)([C@@H](OC(=O)c4ccccc4)[C@H]21)C3(C)C	4.93%
O/N=C/c1cc[n+](COC[n+]2ccc(/C=N/O)cc2)cc1	-0.93%
COc1ccc(S(=O)(=O)Nc2cccnc2Nc2ccc(O)cc2)cc1	36.1%
CC[C@H]1OC(=O)[C@H](C)[C@@H](O[C@H]2C[C@@](C)(OC)[C@@H](O)[C@H](C)O2)[C@H](C)[C@@H](O[C@@H]2O[C@H](C)C[C@H](N(C)C)[C@H]2O)[C@](C)(O)C[C@@H](C)C(=O)[C@H](C)[C@@H](O)[C@]1(C)O	2.71%
CCCCCCCCCCCCCCCC[N+](C)(C)Cc1ccccc1	48.6%
C[N+]1(C)CCCC(OC(=O)C(O)(c2ccccc2)c2ccccc2)C1 (stereo not shown)	-3.05%
CC(C)(Oc1ccc(Cl)cc1)C(=O)O	6.03%
COc1cc(N2CCC(N3CCN(C)CC3)CC2)ccc1Nc1ncnc(Nc2ccccc2S(=O)(=O)C(C)C)n1	8.2%
O=c1[nH]cnc2c1ncn2[C@H]1CC[C@@H](CO)O1	2.34%
Cc1nnc(NS(=O)(=O)c2ccc(N)cc2)s1	0.86%
COc1ccc(NS(=O)(=O)c2ccc(/N=N/c3ccc(O)c(C(=O)O)c3)cc2)nn1	8.25%
CC(C)(C)NCc1cc(Nc2ccnc3cc(Cl)ccc23)c2c(c1O)CCCC2	1.56%
OC(Cn1cncn1)(Cn1cncn1)c1ccc(F)cc1F	3.55%
Cc1cccc(Nc2ccccc2C(=O)O)c1C	4.99%
CC[C@H]1CN2CC[C@H]1C[C@@H]2[C@@H](O)c1ccnc2ccc(OC)cc12	4.7%
CON(C)C(=O)N1N=C(c2cc(F)ccc2F)S[C@@]1(CCCN)c1ccccc1	9.36%
CCOC(=S)SSC(=S)OCC	53.3%
CN(C)c1cc(CNCC(C)(C)C)c(O)c2c1C[C@H]1C[C@H]3[C@H](N(C)C)C(O)=C(C(N)=O)C(=O)[C@@]3(O)C(O)=C1C2=O	9.16%
Cn1cc(C(F)(F)F)nc1-c1ccc(OCC(O)CNCCOc2ccc(O)c(C(N)=O)c2)cc1 (stereo not shown)	0.1%

Series 4 — cell line: HEK-293T; effect on: pseudovirus infection; technique: FDA-approved drug library screen; organism: VSV pseudotyped with SARS-CoV-2 spike; concentration: 10 µM; time: 16 h; reference: vehicle-treated
SMILES	GFP-positive cells [%]
NCc1ccc(S(N)(=O)=O)cc1	84.6
CCN(CC)CCNC(=O)c1c(C)[nH]c(/C=C2\C(=O)Nc3ccc(F)cc32)c1C	392
CCOC(=O)CCC(=O)O[C@H]1[C@H](O[C@@H]2[C@@H](C)[C@H](O[C@H]3C[C@@](C)(OC)[C@@H](O)[C@H](C)O3)[C@@H](C)C(=O)O[C@H](CC)[C@@](C)(O)[C@H](O)[C@@H](C)C(=O)[C@H](C)C[C@@]2(C)O)O[C@H](C)C[C@@H]1N(C)C	106
CCN(CCO)CCCC(C)Nc1ccnc2cc(Cl)ccc12 (stereo not shown)	37.3
O=c1cc[nH]c(=O)[nH]1	71.6

Series 5 — technique: protein binding microarray; form: double-stranded DNA, one strand shown; matrix: in vitro; concentration: not given; reference: not given; reading: higher = stronger binding
Target: Histone acetyltransferase KAT6A, both winged helices, GST fusion (KAT6A, Homo sapiens, UniProt Q92794, residues 1-181)
Notes: 8-mer, flanks averaged, mean of 2 arrays, mostly near background
Construct (chain): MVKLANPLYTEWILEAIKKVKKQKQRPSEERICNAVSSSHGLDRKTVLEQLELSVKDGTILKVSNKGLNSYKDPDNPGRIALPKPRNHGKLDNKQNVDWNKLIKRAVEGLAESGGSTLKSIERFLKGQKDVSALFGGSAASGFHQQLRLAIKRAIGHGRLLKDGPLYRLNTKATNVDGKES
Sequence	E-score
ACCCATGG	-0.132
ATCCGGAT	-0.124
AGGGTAAT	-0.12
GATCTTAA	0.0703
GGGCTAAC	-0.0372
GAGCCTGC	0.0483
TCATCTAA	-0.0553
CACTATTA	-0.0647

Other studies, line by line
Structure (SMILES)	target	assay	setting	endpoint	value
O=C1/C(=C/c2ccc([N+](=O)[O-])cc2)CS(=O)(=O)C/C1=C\c1ccc([N+](=O)[O-])cc1	Replicase polyprotein 1ab, main protease (rep, Severe acute respiratory syndrome coronavirus 2, UniProt P0DTD1)	enzyme activity, inhibitor	20 µM, hit confirmation	inhibition	57.1%

Some of these lines once more (series 4):
SMILES	GFP-positive cells [%]
CCN(CC)CCNC(=O)c1c(C)[nH]c(/C=C2\C(=O)Nc3ccc(F)cc32)c1C	392
NCc1ccc(S(N)(=O)=O)cc1	84.6
O=c1cc[nH]c(=O)[nH]1	71.6
CCN(CCO)CCCC(C)Nc1ccnc2cc(Cl)ccc12 (stereo not shown)	37.3
CCOC(=O)CCC(=O)O[C@H]1[C@H](O[C@@H]2[C@@H](C)[C@H](O[C@H]3C[C@@](C)(OC)[C@@H](O)[C@H](C)O3)[C@@H](C)C(=O)O[C@H](CC)[C@@](C)(O)[C@H](O)[C@@H](C)C(=O)[C@H](C)C[C@@]2(C)O)O[C@H](C)C[C@@H]1N(C)C	106
